Measured values collected from several papers.
Protocols differ between the studies behind these lines. ± gives the spread as reported.

Compound = CC[C@H](C)[C@@H]1NC(=O)[C@H](CCCNC(=N)N)NC(=O)[C@H](CC(=O)O)NC(=O)[C@H](CC(C)C)NC(=O)[C@H](CCCCN)NC(=O)[C@H](CC(C)C)NC(=O)CNC(=O)[C@H](Cc2ccccc2)NC(=O)[C@@H](NC(=O)CNC(=O)[C@H](CCCCN)NC(=O)[C@H](CO)NC(=O)[C@H](CC(C)C)NC(=O)CNC(=O)[C@H](CCCCN)NC(=O)[C@H](CCCCN)NC(=O)[C@H](CC(N)=O)NC(=O)[C@H](C)NC(=O)CNC(=O)[C@H](CCCCN)NC(=O)[C@H](Cc2ccc(O)cc2)NC(=O)[C@H](CCCCN)NC(=O)[C@H](CCCNC(=N)N)NC(=O)[C@H](C)NC(=O)[C@H](CC(N)=O)NC(=O)[C@@H]2CCCN2C(=O)[C@H](Cc2c[nH]cn2)NC(=O)[C@H](CCC(=O)O)NC(=O)[C@H](CCC(N)=O)NC(=O)CNC(=O)[C@@H]2CCCN2)CSSC[C@@H](C(=O)O)NC(=O)CNC(=O)[C@H](CC(C)C)NC(=O)CNC(=O)[C@H](CO)NC(=O)[C@H](CCSC)NC(=O)[C@H](CO)NC(=O)CNC1=O; system = human, plasma; conditions = subcutaneous, 15 µg/kg once daily, week 52; half-life = 0.465 h
Compound = CC(C)(Sc1ccncc1-c1ccc(C#N)c2ccccc12)C(=O)O; system = human; conditions = oral, 5 mg, together with: febuxostat 40 mg; half-life = 13.2 h
Compound = O=C(c1ccc(OCCN2CCCCC2)cc1)c1c(-c2ccc(O)cc2)sc2cc(O)ccc12; system = healthy humans, plasma; conditions = oral, 60 mg, together with: water; half-life = 24.9 h
Compound = CO[C@H]1C[C@@H]2CC[C@@H](C)[C@@](O)(O2)C(=O)C(=O)N2CCCC[C@H]2C(=O)O[C@H]([C@H](C)C[C@@H]2CC[C@@H](O)[C@H](OC)C2)CC(=O)[C@H](C)/C=C(\C)[C@@H](O)[C@@H](OC)C(=O)[C@H](C)C[C@H](C)/C=C/C=C/C=C/1C; system = human, whole blood; conditions = oral, 25 mg, together with: grapefruit juice; half-life = 40 h
Compound = COCCCCn1c(C(=O)N(CC(C)C)[C@@H]2CNC[C@H](C(=O)N3CCOCC3)C2)nc2ccccc21; system = human, elderly, plasma; conditions = oral, 80 mg once daily, day 1, mean; half-life = 11.2 h
Compound = CC(C)(C)OC[C@@H]1C(=O)NCCN1C(=O)C[C@H](N)Cc1cc(F)c(F)cc1F; system = human, male, plasma; conditions = oral, single dose, fixed-dose combination with metformin, fasted; half-life = 32.6 ± 7.15 h
Compound = O=C(c1cccnc1-c1ccncc1)N1CCC(O)(Cc2ccccc2)CC1; system = healthy human, plasma; conditions = oral, 100 mg once daily, day 14, arithmetic mean; half-life = 3.83 h
Compound = Cc1[nH]c(/C=C2\C(=O)Nc3ccccc32)c(C)c1CCC(=O)O; assay = HPLC-UV; system = human, cancer patients, plasma; conditions = oral, 200 mg/m^2 three times daily, after meal, second dose; half-life = 1.46 h
Compound = CCOc1ccc(Cc2cc([C@@H]3S[C@H](CO)[C@@H](O)[C@H](O)[C@H]3O)c(OC)cc2C)cc1; system = human, plasma; conditions = oral, 10 mg/day, day 7, multiple dose before breakfast; half-life = 9.14 ± 1.11 h
Compound = Cc1ccc(NC(=O)c2ccc(CN3CCN(C)CC3)cc2)cc1Nc1nccc(-c2cncc(-c3oncc3C)c2)n1; system = older healthy human adults, plasma; conditions = oral, 100 mg single dose, fed, mean; half-life = 32 h
Compound = N#CCNC(=O)c1ccc(-c2ccnc(Nc3ccc(N4CCOCC4=O)cc3)n2)cc1; system = human, plasma; conditions = oral, 200 mg momelotinib once daily, cycle 1 day 15, median, together with: trametinib 1.0 mg once daily; half-life = 12.4 h
Compound = CCS(=O)(=O)N1CC(CC#N)(n2cc(-c3ncnc4[nH]ccc34)cn2)C1; system = healthy Chinese human subjects, plasma; conditions = oral, 2 mg, single dose, mean; half-life = 5.85 h
Compound = C[C@H]1O[C@@H](O[C@H]2[C@@H](O)C[C@H](O[C@H]3[C@@H](O)C[C@H](O[C@H]4CC[C@@]5(C)[C@H](CC[C@@H]6[C@@H]5C[C@@H](O)[C@]5(C)[C@@H](C7=CC(=O)OC7)CC[C@]65O)C4)O[C@@H]3C)O[C@@H]2C)C[C@H](O)[C@@H]1O; system = human; conditions = oral, day 19, together with: isavuconazole; half-life = 44.1 h
Compound = CC(C)[C@H](N)C(=O)NCCCS(=O)(=O)O; system = human, both sexes, plasma; conditions = oral, 100 mg capsule; half-life = 0.7 ± 0.11 h
Compound = CC(=O)c1c(C)c2cnc(Nc3ccc(N4CCNCC4)cn3)nc2n(C2CCCC2)c1=O; system = human; conditions = oral, 75 mg/m^2 repeated doses, day 21; half-life = 15.8 ± 7 h
Compound = CCCOc1ccc(S(=O)(=O)NCCC2CCCN2C)cc1-c1nc2c(CCC)nn(C)c2c(=O)[nH]1 (stereo not drawn); system = human, plasma; conditions = oral, dose not given; half-life = 10 to 13 h
Compound = CS(=O)(=O)n1cc2c(n1)CN([C@H]1CO[C@H](c3cc(F)ccc3F)[C@@H](N)C1)C2; system = healthy male human, plasma; conditions = oral, 12.5 mg single, fasted, geometric mean; half-life = 68.9 h
Compound = CCOc1ccc(Cc2cc([C@]34OC[C@](CO)(O3)[C@@H](O)[C@H](O)[C@H]4O)ccc2Cl)cc1; system = healthy human, plasma; conditions = oral, 15 mg, 20% glucose solution, together with: glimepiride 1 mg; half-life = 11.3 ± 3.28 h
Compound = NC(=O)N1CCC(CC(=O)N2CCC([C@H]3c4ncc(Br)cc4CCc4cc(Cl)cc(Br)c43)CC2)CC1; system = human, plasma; conditions = oral, 150 mg twice daily, cycle 2 day 15, multiple dose, together with: gemcitabine 750 mg/m2; half-life = 6.68 h
Compound = CCCC[C@H](NC(C)=O)C(=O)N[C@H]1CCC(=O)NC[C@@H](C(=O)N[C@@H](Cc2c[nH]c3ccccc23)C(N)=O)NC(=O)[C@H](CCCNC(=N)N)NC(=O)[C@@H](Cc2ccccc2)NC(=O)[C@H](Cc2c[nH]cn2)NC1=O; system = healthy human, both sexes, plasma; conditions = subcutaneous, 1.0 mg once daily, day 1, median; half-life = 3.5 h
Compound = Cc1cccc(C)c1OCC(=O)N[C@@H](Cc1ccccc1)[C@@H](O)C[C@H](Cc1ccccc1)NC(=O)[C@H](C(C)C)N1CCCNC1=O; system = human, HIV+/HCV−, plasma; conditions = oral, total drug, steady state, median, together with: lopinavir/ritonavir twice daily; half-life = 7.2 h
Compound = C=CC(=O)N1CCC([C@@H]2CCNc3c(C(N)=O)c(-c4ccc(Oc5ccccc5)cc4)nn32)CC1; system = human; conditions = oral, 480 mg single dose, mean; half-life = 11 h
Compound = C[C@@H](c1nc(-c2ccc(C#N)cc2)cs1)[C@](O)(Cn1cncn1)c1cc(F)ccc1F; system = human, both sexes, plasma; conditions = oral, 200 mg single dose, together with: ketoconazole 200 mg BID; half-life = 430 h
Compound = CCCCOC(=O)N1CCN(C(=O)[C@H](CP(=O)(O)O)NC(=O)c2cc(N3CC[C@H](OC)C3)nc(-c3ccccc3)n2)CC1; system = healthy human, plasma; conditions = subcutaneous, 4 mg, placebo i.v.; scale = geometric mean; half-life = 2.5 h
Compound = CCCCC1(CCCC)CN(c2ccccc2)c2cc(SC)c(OCC(=O)N[C@@H](C(=O)NCC(=O)O)c3ccccc3)cc2S(=O)(=O)C1; assay = LC-MS/MS; system = human, plasma; conditions = oral, 5 mg, single dose, fasted; half-life = 3.94 h
Compound = COc1cc2ncnc(Nc3ccc(F)c(Cl)c3)c2cc1OCCCN1CCOCC1; system = human, plasma; conditions = oral, 250 mg, mean; half-life = 23.8 h
Compound = CO[C@H]1C[C@@H]2CC[C@@H](C)[C@@](O)(O2)C(=O)C(=O)N2CCCC[C@H]2C(=O)O[C@H]([C@H](C)C[C@@H]2CC[C@@H](O)[C@H](OC)C2)CC(=O)[C@H](C)/C=C(\C)[C@@H](O)[C@@H](OC)C(=O)[C@H](C)C[C@H](C)/C=C/C=C/C=C/1C; system = healthy adult human, blood; conditions = 0.5 mg single dose, harmonic mean, together with: ritonavir-containing 3D regimen; half-life = 249 h
Compound = Cc1nc2c(F)cc(-c3nc(Nc4ccc(CN5CCNCC5)cn4)ncc3F)cc2n1C(C)C; system = human patients, plasma; conditions = oral, 150 mg, single dose, geometric mean; half-life = 16 h
Compound = O=C(/C=C/c1cccc(S(=O)(=O)Nc2ccccc2)c1)NO[C@@H]1O[C@H](C(=O)O)[C@@H](O)[C@H](O)[C@H]1O; system = human moderate liver dysfunction, plasma; conditions = intravenous, 400 mg/m^2, 30 min infusion, cycle 1 day -7, together with: belinostat 400 mg/m^2 iv; half-life = 3.97 h
Compound = COc1cc(N2CCC(N3CCN(C)CC3)CC2)ccc1Nc1ncc(Cl)c(Nc2ccccc2P(C)(C)=O)n1; system = healthy humans, plasma; conditions = oral, 180 mg, alone, geometric mean; half-life = 24.8 h
Compound = Nc1ccc(-c2nc([C@H]3CCc4cc(-c5cc(Cl)ccc5-n5cnnn5)cc(=O)n43)c(F)[nH]2)c(F)n1; system = human, plasma; conditions = oral, 150 mg once daily, day 14, fed; half-life = 24.8 h
Compound = C[C@H](N)C(=O)N1C[C@H](CCCB(O)O)[C@](N)(C(=O)O)C1; system = human, plasma; conditions = oral, 50 mg twice daily, cycle 1 day 15; half-life = 5.7 ± 1.1 h
Compound = C=CC[C@@H]1/C=C(\C)C[C@H](C)C[C@H](OC)[C@H]2O[C@@](O)(C(=O)C(=O)N3CCCC[C@H]3C(=O)O[C@H](/C(C)=C/[C@@H]3CC[C@@H](O)[C@H](OC)C3)[C@H](C)[C@@H](O)CC1=O)[C@H](C)C[C@@H]2OC; system = healthy human subjects, whole blood; conditions = oral, 5 mg single dose, arithmetic mean, together with: isavuconazole 200 mg once daily after loading; half-life = 37.5 h
